Assay results gathered from unrelated publications.
A part holds a random share of what one study measured. Substitutions count along the parent as printed.

Sample 1 — target: CCNE2, cyclin fold, Cln2 fusion (human); technique: yeast growth competition, sequencing; sample: yeast; notes: weak parent motif; relative to: not given; direction: higher = stronger binding; quantity: normalised enrichment score
Parent: CDC6 docking peptide (human); TLKGRRLVFDNQL
K3P: 0.483
T1Q: -0.0603
K3T: 1.31
D10V: 0.396
Q12E: -0.199
R6V: 0.909

Sample 2 — technique: protein binding microarray; form: double-stranded DNA, one strand shown; sample: in vitro; concentration: not given; relative to: not given; direction: higher = stronger binding; quantity: E-score
Target: Histone acetyltransferase KAT6A, winged helix 1, GST fusion (KAT6A, Homo sapiens, UniProt Q92794, residues 1-85)
Notes: 8-mer, flanks averaged, mean of 2 arrays, mostly near background
Construct (chain): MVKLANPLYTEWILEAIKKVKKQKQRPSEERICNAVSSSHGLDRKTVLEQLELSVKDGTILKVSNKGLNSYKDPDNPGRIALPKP
CACAGAAA: -0.156
ATCCGCCC: 0.216
AGAGTAGG: -0.201
CCGGTACC: 0.29
AAGGCAAT: -0.2
AACCAAGA: -0.289
CATGTCGA: -0.122
ATTGTTCA: -0.112
CGGATTGA: 0.122

Sample 3 — technique: aptamer microarray, sandwich; form: DNA with 2'F-ANA; sample: in vitro; concentration: 200 nM; with: Cy3 exosite-II aptamer, 400 nM; direction: higher = stronger binding; quantity: mean fluorescence intensity; oligonucleotide: GGTTGGTGTGGTTGG
Target: Prothrombin, mature alpha-thrombin (F2, Homo sapiens, UniProt P00734)
Notes: whole 15-mer aptamer, many near background
2'F-ANA at 1 3 4 5 6 9 12 13 15: 70.8 a.u.
2'F-ANA at 3 6 10 14 15: 362 a.u.
2'F-ANA at 1 5 6 8 9 11 13 15: 49.6 a.u.
2'F-ANA at 1 2 4 5 8 9 13: 72.6 a.u.
2'F-ANA at 1 12 14: 72 a.u.
2'F-ANA at 1 2 3 6 7 8 10 11 12 14: 55.4 a.u.
2'F-ANA at 3 4 6 8 11: 562 a.u.
2'F-ANA at 2 3 7 8 10 11 14: 261 a.u.
2'F-ANA at 1 2 6 8 12 13 14 15: 68.3 a.u.

Mixed results
PhoQ, residues 284 288 289 292 302 303 NLCILV — fold induction (PhoP, residues 12 14 15 18 19 NYFTV (Escherichia coli, UniProt P23836); Sort-seq, measured: YFP reporter; E. coli; PhoQ-PhoP variant library, with: 10 µM Mg2+; relative to: high Mg2+ state, higher = stronger signaling): 9.09

A few entries again (sample 2):
AGAGTAGG: -0.201
AACCAAGA: -0.289
